Assay results gathered from unrelated publications.
Every numbered part comes from another study and shows a few of its results, in no order. Changes are numbered by the printed parent chain.

Study 1 — technique: RNA Bind-n-Seq; form: RNA; medium: in vitro; tested at: 365 nM; relative to: no-protein control; direction: higher = stronger binding
Target: RNA binding protein fox-1 homolog 2, RRM domain, GST-SBP tag (RBFOX2, Homo sapiens, UniProt O43251-10, residues 100-194)
Setting: natural RNA segment, single round, ends assumed
Target sequence (chain): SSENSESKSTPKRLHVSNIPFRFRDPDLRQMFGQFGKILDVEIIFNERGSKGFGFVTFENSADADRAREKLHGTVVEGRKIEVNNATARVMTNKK
| Strand | RBNS enrichment (R) |
| --- | --- |
| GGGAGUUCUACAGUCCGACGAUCUUCGCUGUGGCCCUCGGGGUCAGACUGUUCAUUCUCCAGCAUGAUUGUGCCUUUUAAUUAGAGGUCUAGAAAGUUCACCUGAACCCACACCCCCUUCUUCCUGAGAAUUCUGGAAUUCUCGGGUGCCAA | 8.29 |
| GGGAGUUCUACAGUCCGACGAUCGGUACCAAAGCACUGAGUCUAAUUUACCUAUUAAGGGAGACUCUUUAAAAUCAACUUUAUAACUAAUUCAUACUAUAAGACAGAUAAUAGCUAAAGUUUUGGAAUAAUUUUGGAAUUCUCGGGUGCCAA | 0.463 |
| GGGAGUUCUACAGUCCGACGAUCGAAUCCAAAGUGGACACCAUUAACAGGUCUUUGAAAUAUGCAUGUACUUUAUAUUUUCUAUAUUUGUAACUUUGCAUGUUCUUGUUUUGUUAUAUAAAAAAAUUGUAAAUUGGAAUUCUCGGGUGCCAA | 23.2 |
| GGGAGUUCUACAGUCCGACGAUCAGCCCCUCCCCCAACAAGAUCUCUUGGACUCAGGCCUCAGAGCCUGGCCUGGUUGUGAGUGUGUGUCCCUGUGUGUGUGUUGCGGGAGGGGAGGACUGGGGCUGGAAGUCUGGAAUUCUCGGGUGCCAA | 0.244 |
| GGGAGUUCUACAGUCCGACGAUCGAGCAGUCUGCCUCUCCCAAGCCCCAGGGGACAGUGGGGAGGCAGGGGAGGGGGUGGCUGUGGUCCAGGGACCCCAGGCCCUGAUUCCUGUGCCUGGCGUCUGUCCCGGCUGGAAUUCUCGGGUGCCAA | 0.407 |
| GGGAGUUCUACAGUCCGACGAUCGUUGAUUAGUACAAGUGCAAUUUCAAAAAGAUCUUGAAAGUAAUAUAUUUAAUCAAUUAAAAUGUUUCUCUGUAAGUCGUCGAUGUUUCUGUUAAUACAGUUUCCUGAAGUGGAAUUCUCGGGUGCCAA | 0.593 |
| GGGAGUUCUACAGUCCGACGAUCGCUCUGGGAGAUGUUGGGUGUUUUAAGGUUACUGAACCUACAAAGGCCCCUCCUCCCUGACCACCCAUCUUGGCCCGUCAUACCUAGCGCUGUCAUGUCCCCUCCCCGCAUGGAAUUCUCGGGUGCCAA | 3.88 |
| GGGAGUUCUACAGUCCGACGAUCGAAAUGUAAAUUAUUUCAAGUACUUCAGGGUUUAGUUUUCUUAGUGACACCCUGGACCCUGGAUGCUGCUUUCUAAAGUGCACCUGAUCCAUGCAGUUUUAUGUCUUCAUUGGAAUUCUCGGGUGCCAA | 0.323 |
| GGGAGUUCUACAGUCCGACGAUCCACCCGUCCCCUUCACGCCCUUGACACUAAGGAGUGGGGGGCCCUGGACUGCCCCUUCCUCCCCCAUCGCCCGCCCCCAGAACCCCUGAUGCUGGUUAGGAACCGCUCACUGGAAUUCUCGGGUGCCAA | 0.478 |
| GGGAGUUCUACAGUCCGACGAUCGGUGGCAGCAGUGCUCUCUCCUGCCUCCUGCGGACUCAGGUCUCUGGGGCUGCUCACUAGGCCUUGUAAUCACACAGCACAAGCAUACCUCACAGCCACCCUGAGGCUCUUGGAAUUCUCGGGUGCCAA | 0.328 |
| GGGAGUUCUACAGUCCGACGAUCAUGCUCUUUCCCAGGACGGAUGGGCCCUAUGUCUCAGGAGUGGGGUUGGGGGACAGCCUUCAGCAGCAGCUCACACCCUACCUUCCCCAGACUUGCACUGGGGUGGGAUUUGGAAUUCUCGGGUGCCAA | 0.342 |
| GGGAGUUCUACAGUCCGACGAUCCAGGUGGUGUCAUGGAUGCUUUGGGGAAUCCUUCGCAGCUAUUUCCACCCCUGCCUCUGGGCACCCACCACUCACGGAUGGCAGAACCCAUUCAGUCUCCUACCUUGCAUUGGAAUUCUCGGGUGCCAA | 0.632 |

Study 2 — technique: RNA Bind-n-Seq; form: RNA; medium: in vitro; tested at: 200 nM; setting: whole 134-nt RNA, ends assumed; added: 150 mM LiCl; relative to: input library; direction: higher = stronger binding; each molecule: 7-deaza-guanosine replaces G
Target: Fragile X messenger ribonucleoprotein 1, C-terminal low-complexity region (Fmr1, Mus musculus, UniProt P35922)
| Strand | log2 enrichment |
| --- | --- |
| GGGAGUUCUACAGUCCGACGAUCAGUCCUGUGCUACACAUCGUAUGUACCGAAUCGGGGAGGGGUUUUUUUGGGGUGGGGAAAGUAUUAUGUUACGCCGUUCGGAUCUGCACUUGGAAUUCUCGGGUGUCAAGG | 0.273 |
| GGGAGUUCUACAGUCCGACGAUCACCAUGCAGGUGGGCAUCUUUGGGAAGUGGGGCAAGGGGGGGAUAGGGAGGGGGGUAACACUUUGGGAACAGGUGAUCCCAGGUCGUUUCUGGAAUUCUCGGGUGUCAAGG | 1.35 |
| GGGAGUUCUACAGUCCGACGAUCGUCCUGUGCUACACAUCGUAUGUACCGAAUCGGGGUUUUUGGGGUGGGGUUUUUGGGGAAAGUAUUAUGUUACGCCGUUCGGAUCUGCACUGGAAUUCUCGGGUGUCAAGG | 0.0502 |
| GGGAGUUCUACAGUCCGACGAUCCAAGUCCUGUGCUACACAUCGUAUGUACCGAAUCGGGGAAAGGAAAGGGAAAGGGGAAAGUAUUAUGUUACGCCGUUCGGAUCUGCACUUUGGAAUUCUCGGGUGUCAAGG | -0.882 |
| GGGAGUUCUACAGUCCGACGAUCUAACUUUAGAUGAGGAUCUGAUGGAUAUGGCAGUGGACGUGGAUUUGGGGAUGGCUAUAAUGGGUAUGGAGGAGGACCUGGAGGUGGCAAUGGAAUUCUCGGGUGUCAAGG | -0.0345 |
| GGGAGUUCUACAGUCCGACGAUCGCAGGAAGUAAAAACAAAUGGAAAUGCUUCGGAUAGUGGCAGGGGUGGGGGUUGCUAAGAAAAGGGUGGGAUGGGAGUGGGUAAAGAGUUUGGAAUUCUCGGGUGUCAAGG | 1.66 |
| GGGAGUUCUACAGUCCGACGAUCCUGUGCUACACAUCGUAUGUACCGAAUCGGGGUUUUUGGGGUUUUUUUGGGGUUUUUGGGGAAAGUAUUAUGUUACGCCGUUCGGAUCUGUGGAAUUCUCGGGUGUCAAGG | 1.78 |
| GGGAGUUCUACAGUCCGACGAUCACCAUGCAGGUGGGCAUCUUUGGGAAGUGGGGCAAGGGGGGGAUAGGGAGGGGGGUAACACUUUGGGAACAGGUGGUCCCAGGCCGUUUCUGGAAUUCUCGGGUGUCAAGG | 1.25 |
| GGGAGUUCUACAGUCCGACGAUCCCUCAAGUCCUGUGCUACACAUCGUAUGUACCGAAUCGGCGGGCGGGGCGGGAAAGUAUUAUGUUACGCCGUUCGGAUCUGCACUUCCAGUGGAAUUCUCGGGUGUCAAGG | 0.406 |
| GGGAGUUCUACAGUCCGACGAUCCUCAAGUCCUGUGCUACACAUCGUAUGUACCGAAUCGGGUGGGUGGGUUUGGGAAAGUAUUAUGUUACGCCGUUCGGAUCUGCACUUCCAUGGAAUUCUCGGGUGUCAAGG | -0.758 |
| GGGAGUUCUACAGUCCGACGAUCUCCUGUGCUACACAUCGUAUGUACCGAAUCGGGGUGGGGUUUUUUUGGGGAAAAAGGGGAAAGUAUUAUGUUACGCCGUUCGGAUCUGCAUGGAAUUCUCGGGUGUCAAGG | -1.28 |

Study 3 — technique: protein binding microarray; form: double-stranded DNA, one strand shown; medium: in vitro; tested at: not given; relative to: not given; direction: higher = stronger binding
Target: Histone acetyltransferase KAT6A, both winged helices, GST fusion (KAT6A, Homo sapiens, UniProt Q92794, residues 1-181)
Setting: 8-mer, flanks averaged, mean of 2 arrays, mostly near background
Residues (chain): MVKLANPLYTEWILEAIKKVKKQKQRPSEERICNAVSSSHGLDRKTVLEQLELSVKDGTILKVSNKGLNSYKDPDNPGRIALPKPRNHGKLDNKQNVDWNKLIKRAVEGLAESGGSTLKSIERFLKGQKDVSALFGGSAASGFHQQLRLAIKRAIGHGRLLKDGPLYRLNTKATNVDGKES
| Strand | E-score |
| --- | --- |
| GAATGCCC | -0.0475 |
| CAGTTGGA | -0.00375 |
| CCACATGA | -0.176 |
| CATAAACA | 0.048 |
| CCCCTCAC | -0.0874 |
| ATGGGTCC | -0.0626 |
| ATCACTTG | -0.166 |
| GCCAGAGC | -0.0318 |
| CTGGCTAC | -0.0448 |
| ACCTCAGT | -0.121 |
| GTTTTGCA | -0.168 |
| ATCTTCAT | -0.0413 |
| ACGTGTTG | 0.0137 |
| ACCATGAA | -0.0501 |
| ACTTTGCG | 0.0982 |
| ACAATGTA | -0.112 |
| AAAATAGT | -0.115 |

Study 4 — target: DDIT3, bZIP domain (human); technique: DHFR protein complementation; medium: yeast; relative to: wild-type JUN-FOS pair; direction: higher = stronger binding
Setting: single substitutions, most at no-binding floor
Starting sequence: JUN, bZIP domain (human); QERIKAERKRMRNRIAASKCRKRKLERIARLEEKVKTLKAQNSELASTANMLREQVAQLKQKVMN; partner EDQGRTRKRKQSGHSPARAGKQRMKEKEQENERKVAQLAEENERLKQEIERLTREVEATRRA
| Variant | binding fitness |
| --- | --- |
| S47K | 0.217 natural log |
| K39G | -0.201 natural log |
| E32T | -0.355 natural log |
| A29C | -0.184 natural log |
| V56N | -0.632 natural log |
| V56R | -0.561 natural log |
| E32W | -0.919 natural log |
| E54K | -0.0833 natural log |
| Q55F | -0.189 natural log |
| L52S | -1.2 natural log |
| V56Q | -0.465 natural log |

Study 5 — target: CCNB2, cyclin fold, Cln2 fusion (human); technique: yeast growth competition, sequencing; medium: yeast; setting: weak parent motif; relative to: not given; direction: higher = stronger binding
Starting sequence: RBL2 docking peptide (human); STTRRRLFVENDS
| Variant | normalised enrichment score |
| --- | --- |
| STTRRRLFGENDS [V9G] | 0.339 |
| STTRRRLFIENDS [V9I] | 0.393 |
| STTRRRLYVENDS [F8Y] | 0.0965 |
| SGTRRRLFVENDS [T2G] | 0.572 |
| STTRRRLFVGNDS [E10G] | 0.14 |
| STTRRRLFVECDS [N11C] | 1.02 |
| GTTRRRLFVENDS [S1G] | 0.171 |
| STTFRRLFVENDS [R4F] | 0.593 |
| STTRRRLFVENDI [S13I] | 0.698 |
| STTRKRLFVENDS [R5K] | 0.544 |
| STTRRLLFVENDS [R6L] | 0.643 |
| HTTRRRLFVENDS [S1H] | 0.272 |
| STTRRALFVENDS [R6A] | 0.422 |

Some of these lines once more (study 3):
| Strand | E-score |
| --- | --- |
| CAGTTGGA | -0.00375 |
| CATAAACA | 0.048 |
| ACAATGTA | -0.112 |
| ACTTTGCG | 0.0982 |
